Experimental data of several laboratories.
Protocols differ between the studies behind these lines. Numbers after ± are the reported error.

`Cn1cc2cc1C(=O)NC[C@H](N)CC(=O)Nc1cc(n(C)c1)C(=O)Nc1cc(n(C)c1)C(=O)Nc1cc(n(C)c1)C(=O)Nc1cc(n(C)c1)C(=O)NC[C@H](N)CC(=O)Nc1cn(C)c(n1)C(=O)Nc1cn(C)c(n1)C(=O)Nc1cc(n(C)c1)C(=O)N2` has a blood concentration of roughly 1200 nM (C57BL/6 mice, blood; intraperitoneal, 120 nmol/animal, 1.5 h, corrected for extraction efficiency).
For `COCCOCCOCCOCCOCCOCCOCCNC(=O)CCC1(CCC(=O)NCCOCCOCCOCCOCCOCCOCCOC)c2ccccc2-c2ccc(-c3sc(-c4c5c(c(-c6sc(-c7ccc8c(c7)C(CCC(=O)NCCOCCOCCOCCOCCOCCOCCOC)(CCC(=O)NCCOCCOCCOCCOCCOCCOCCOC)c7ccccc7-8)c7c6OCCO7)c6nsnc46)N=S=N5)c4c3OCCO4)cc21`, the blood half-life was roughly 0.933 h (NIR-II fluorescence; KM mice, female, whole blood; intravenous, 15 mg/kg).
`C[C@]12CC[C@@H]3c4ccc(OCC(=O)N[C@@H](CCCCNC(=O)CN5CCN(CC(=O)[O-])CCN(CC(=O)[O-])CCN(CC(=O)[O-])CC5)C(=O)O)cc4CC[C@H]3[C@@H]1CCC2=O.[68Ga+3]` gave a blood radioactivity of less than 0.5 %IA/g (female Balb/c mice; dose not given, 2.5 h).
With `CCCC[C@@H]1NC(=O)[C@@H](NC(=O)[C@H](CCC(=O)O)NC(=O)CNC(=O)CN2CCN(CC(=O)O)CCN(CC(=O)O)CCN(CC(=O)O)CC2)CCCCNC(=O)C[C@@H](C(N)=O)NC(=O)[C@H](C(C)C)NC(=O)[C@@H]2CCCN2C(=O)[C@H](CCCNC(=N)N)NC(=O)CNC(=O)[C@H](Cc2c[nH]c3ccccc23)NC(=O)[C@H](CCCNC(=N)N)NC(=O)[C@@H](Cc2ccccc2)NC(=O)[C@H](Cc2c[nH]cn2)NC(=O)[C@H](CCC(=O)O)NC1=O` [gallium-67 labelled] the blood uptake was 1.22 ± 0.59 %ID/g (C57 mice, B16/F1 melanoma, blood; 0.5 h).
For `COc1cc2c(cc1OC)CN(CCCCn1ccc3cc(OCC[18F])ccc31)C2`, the blood uptake was 2.77 ± 0.1 %ID/g (male ICR mice; intravenous, 280 kBq, 2 min post-injection).
For `COCCOCCOCCOCCOCCOCCOCCOCCOCCOCCOCCOCCOCCOCCOCCOCCOCCOCCOCCOCCOCCOCCNC(=O)CCC1(Cc2ccccc2)c2ccccc2-c2ccc(-c3sc(-c4c5c(c(-c6sc(-c7ccc8c(c7)C(CCC(=O)NCCOCCOCCOCCOCCOCCOCCOCCOCCOCCOCCOCCOCCOCCOCCOCCOCCOCCOCCOCCOCCOCCOC)(Cc7ccccc7)c7ccccc7-8)c7c6OCCO7)c6nsnc46)N=S=N5)c4c3OCCO4)cc21` (stereo not drawn), the blood half-life was 2.98 h (NIR-II fluorescence; KM mice, female, whole blood; intravenous, 15 mg/kg).
With `CCC(=O)N1CCC(NC(=O)Nc2ccc(OC(F)(F)F)cc2)CC1` the blood concentration was greater than 2.5 nM (C57BL/6J mice, male, wild type, blood; subcutaneous, 0.3 mg/kg, 14 days after dosing).
The blood glucose of `CCNC(=O)OCc1c(COC(=O)NCC)c(-c2ccc(OC)cc2)n2c1Cc1ccccc1-2` is reported as 145 ± 19 mg/dL (BALB/c nude mice, blood; day 10).
`O=C([O][Ti+2][O]C(=O)c1ccc(P(c2ccccc2)c2ccccc2)cc1)c1ccc(P(c2ccccc2)c2ccccc2)cc1.[Cl][Au].[Cl][Au].c1cc[cH-]c1.c1cc[cH-]c1` gave a blood concentration of 5500 ng/mL (ICP-MS, measured: gold; NOD.CB17-Prkdc scid/J mice, blood; 7.5 mg/kg, 24 h after first dose).

A few entries again:
With `CCCC[C@@H]1NC(=O)[C@@H](NC(=O)[C@H](CCC(=O)O)NC(=O)CNC(=O)CN2CCN(CC(=O)O)CCN(CC(=O)O)CCN(CC(=O)O)CC2)CCCCNC(=O)C[C@@H](C(N)=O)NC(=O)[C@H](C(C)C)NC(=O)[C@@H]2CCCN2C(=O)[C@H](CCCNC(=N)N)NC(=O)CNC(=O)[C@H](Cc2c[nH]c3ccccc23)NC(=O)[C@H](CCCNC(=N)N)NC(=O)[C@@H](Cc2ccccc2)NC(=O)[C@H](Cc2c[nH]cn2)NC(=O)[C@H](CCC(=O)O)NC1=O` [gallium-67 labelled] the blood uptake was 1.22 ± 0.59 %ID/g (C57 mice, B16/F1 melanoma, blood; 0.5 h).
